Measurements from different studies.
Parts stem from different laboratories: compare values within a part only.

Study 1
Target: Fragile X messenger ribonucleoprotein 1, C-terminal low-complexity region (Fmr1, Mus musculus, UniProt P35922)
Method: RNA Bind-n-Seq
Form: RNA
Sample: in vitro
Concentration: 200 nM
Setting: whole 134-nt RNA, ends assumed
Together with: 150 mM LiCl
Reference: input library
Reading: higher = stronger binding
Endpoint: log2 enrichment
Library: 7-deaza-guanosine replaces G
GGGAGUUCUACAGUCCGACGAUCCACAGACAACACGCACCCACACAGACACAGAGGGAAGGGGUUGGGAUGGGGACAGGGUGCACAGCAGGGCGGGGUAGUACCCCAGCCCCUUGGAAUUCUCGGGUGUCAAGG: 1.38
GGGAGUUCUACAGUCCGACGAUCCACAGACAACACGCACCCACACAGACACAGAGGGAAGGGGUUGGGAUGGGGACAGGGUGCACGGCAGGGCGGGGUAGGACCCCAGCCCCUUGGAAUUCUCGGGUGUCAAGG: -0.423
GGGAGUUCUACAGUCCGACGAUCAAGUCCUGUGCUACACAUCGUAUGUACCGAAUCGGGGUGGGGAAAGGGGAAAGGGGAAAGUAUUAUGUUACGCCGUUCGGAUCUGCACUUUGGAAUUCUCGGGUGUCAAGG: -0.115
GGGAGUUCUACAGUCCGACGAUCCACAGACAACACGCACCCACACAGUCACAGAGGGAAGGGGUUGGGAUGGGGACAGGGUGCACAGCAGGGCGGGGUAGGACCCCAGCCCCUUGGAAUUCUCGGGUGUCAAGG: 0.405
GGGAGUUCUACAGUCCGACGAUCCCUCAAGUCCUGUGCUACACAUCGUAUGUACCGAAUCGGGAGGAGGGAGGGGAAAGUAUUAUGUUACGCCGUUCGGAUCUGCACUUCCAGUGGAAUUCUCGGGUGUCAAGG: -0.711
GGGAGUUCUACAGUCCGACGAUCGUCCUGUGCUACACAUCGUAUGUACCGAAUCAAACCCAAACCCCCCCAAACCCCCAAAAAAGUAUUAUGUUACGCCGUUCGGAUCUGCACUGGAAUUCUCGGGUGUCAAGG: 0.505
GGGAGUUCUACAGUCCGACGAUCCACAGACAACACGCACCCACACAGACACAGAGGGAAGGGGUCGGGAUGGGGACAGGGUGCACAGCAGGGCGGGGUAGGACCCCAGCCCCUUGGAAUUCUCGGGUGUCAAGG: -0.279
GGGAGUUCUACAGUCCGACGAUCCCUGUGCUACACAUCGUAUGUACCGAAUCGGGGCCCCCCCGGCCCCCCCGGGCCCCCCCGGAAAGUAUUAUGUUACGCCGUUCGGAUCUGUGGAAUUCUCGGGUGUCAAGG: 0.256
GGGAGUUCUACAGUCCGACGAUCUCAUCCUUUUUAAAUUUUUUUUUUUUUUUUGAGACGGUCUCACUCUCACCCAGGCUGGAUUGCAGUGGUGUGAUCUCGACCAACUGCAACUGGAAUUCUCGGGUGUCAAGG: 0.56
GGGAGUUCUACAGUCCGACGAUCCCUGUGCUACACAUCGUAUGUACCGAAUCGGGCCCCCCCGGCCCCCCCGGCCCCCCCGGGGAAAGUAUUAUGUUACGCCGUUCGGAUCUGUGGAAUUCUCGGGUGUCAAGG: 0.679
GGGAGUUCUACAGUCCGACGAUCUGGCCCUGGUGGCAUGCGGGGAGGAAGAGGUGGCCUCAUGGAUCGUGGUGGUCCCGGUGGAAUGUUCCGAGGUGGCCGUGGUGGAGACAGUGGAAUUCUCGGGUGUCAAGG: -0.754

Study 2
Target: RNA binding protein fox-1 homolog 2, RRM domain, GST-SBP tag (RBFOX2, Homo sapiens, UniProt O43251-10, residues 100-194)
Method: RNA Bind-n-Seq
Form: RNA
Sample: in vitro
Concentration: 365 nM
Setting: natural RNA segment, single round, ends assumed
Reference: no-protein control
Reading: higher = stronger binding
Endpoint: RBNS enrichment (R)
Residues (chain): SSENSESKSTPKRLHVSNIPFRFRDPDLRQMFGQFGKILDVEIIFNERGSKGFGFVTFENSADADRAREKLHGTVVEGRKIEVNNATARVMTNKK
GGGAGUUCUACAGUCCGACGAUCGUAGCGACUUUGGUGUGCAGUGAGAUGCUCACCUUUAGCCUCUGCUCCCCUAACUAGGCUGGCACUUCCCUUGGCUGUACUUGGGGGACACCCAGAGAGGCUGGUGUACUUGGAAUUCUCGGGUGCCAA: 0.509
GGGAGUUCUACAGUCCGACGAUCAUUCCUUUUGUAGAUGAGUAUGAUUUUGAAACUGAAGAAAUUAAUACAGAGGCAAGAUUUUAGGAGUUUGAAUUGGUUCUUGUUUGUUCUCAUUCUACAUAUAAUUUUGUUGGAAUUCUCGGGUGCCAA: 1.96
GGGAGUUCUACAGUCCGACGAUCAAAAAGUAACAAGCUGUUCCUUGUUUCUGAUACAUAAAAUUAUUUUAAGCAUUUUAUCAAUCAUUAAAAUUUACUGCCAGUUGUGAGUGGCUUUUUAAUUAACUUGUCUUUGGAAUUCUCGGGUGCCAA: 0.486
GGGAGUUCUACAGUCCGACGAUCUGUGAUUUCAGCAGUCAUGGUAUUCCAAGUGUGUGUGUGGAGGUAGAUAAGUGGGACGGUAAAGACAAAGGCGUGGAAGAGAAAGUCAGCGCUUCCUUCCUGGGAAGCCUUGGAAUUCUCGGGUGCCAA: 0.451
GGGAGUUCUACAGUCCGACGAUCGCUUCAUGUUCAUGGAUGACACAAUGUUUUUGCAAAAAAACCCUGAAACUAUUCUUUGGCAUUGGUGUCCAUGGCCCUAUACCGCCAUCUUACACGAAAGCCACAGAGUUUGGAAUUCUCGGGUGCCAA: 0.328
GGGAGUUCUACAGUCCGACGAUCCACAUGUUCAUAUAGCAAUGUAAAAACCUACUAAUGAGUAUUUGGUAAUUUCCCAUUAGCAUAAUUUUAUGUUGUACAAGUAAAUUACAAUUCCAUCUCUAAUCUUGGAUUGGAAUUCUCGGGUGCCAA: 0.481
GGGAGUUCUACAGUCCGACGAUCUGGCCUAGCCGCCCGUGACUCUCACACUGUCUCCUGCAUGACGGGUGGCGCCUCCCGCAGCUUCCCUUCUCUCUCCAGUGCUGCCCGCUGUGUCUAGCAGCCUCUAGGAUUGGAAUUCUCGGGUGCCAA: 2.45
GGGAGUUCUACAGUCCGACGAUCAACCCAAAUCUAAUGUUCAUGUGUUCAAGGAACCUUCUUCCAUUAUGUAACAGAACAGUCUAGAGAAGAUUAAGGACCACAUGGCUUUCUUGCUCUACUUGAAAUUAAUUUGGAAUUCUCGGGUGCCAA: 0.508
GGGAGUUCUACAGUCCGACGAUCGGGCAAUGGUGUCUGUCCAGCCCCUCCCUCUGUCCCUGUGCUCCAAGCUGCCCCCGGCUGCAGCCCAGGCCAUGGACAUGUGCACCAGUAUGUACCUGCAGGCAUGGGGGUGGAAUUCUCGGGUGCCAA: 0.489
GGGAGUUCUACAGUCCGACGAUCCCAAGUCCUAGCUCCUCCUCCUGGGCUAUAUUCCUGACAAAAGUUCCAUAUAGACACCAAGGAGGCGGAGGCGCUCCUCCCUGCCUCAGUGGCUCUGGGUACCUGCAAGCUGGAAUUCUCGGGUGCCAA: 0.339
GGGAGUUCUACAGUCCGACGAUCCCAGUUCUUUGUUUACUUUUCAGGUUUGUACUACAAGGUUUAAUAAUAAAAAGUUUUUUGGACAUUUUGUCUGUCUUGUGGGAAGGGAUUGGGCUUUCUUUGGUCAGUGGUGGAAUUCUCGGGUGCCAA: 0.661
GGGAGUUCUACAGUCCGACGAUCUUUAUAAUUCUGGGAAGCAAAACCCAUGCCUCCCCCUAGCCAUUUUUACUGUUAUCCUAUUUAGAUGGCCAUGAAGAGGAUGCUGUGAAAUUCCCAACAAACAUUGAUGCUGGAAUUCUCGGGUGCCAA: 0.404

Study 3
Target: Histone acetyltransferase KAT6A, winged helix 1, GST fusion (KAT6A, Homo sapiens, UniProt Q92794, residues 1-85)
Method: protein binding microarray
Form: double-stranded DNA, one strand shown
Sample: in vitro
Concentration: not given
Setting: 8-mer, flanks averaged, mean of 2 arrays, mostly near background
Reference: not given
Reading: higher = stronger binding
Endpoint: E-score
Target sequence (chain): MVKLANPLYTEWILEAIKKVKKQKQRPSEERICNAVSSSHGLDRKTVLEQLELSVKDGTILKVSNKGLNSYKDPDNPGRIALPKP
CTTAGATC: -0.293
CCCTTAGA: -0.283
GAATTCCA: -0.127
TCGTCTAA: 0.0333
AACAATAC: -0.00864
CATAATCA: -0.224
CAATGGGC: -0.164
CTTTTCAC: -0.131
GAACGATC: -0.104
CGCGTATA: 0.322
AGGTTATC: -0.101
ATATGCGG: 0.266
AGGGACTG: -0.0644
CGGCTCTC: 0.254
GATAGAGC: 0.0738
TATCTCAA: -0.265
GAGGAGCA: 0.0503
ATACTGGG: -0.14
CACTACAG: -0.185
ACTGTGCA: -0.106

Study 4
Target: Interferon regulatory factor 5, full length, phosphomimetic (IRF5, Homo sapiens, UniProt Q13568-2, residues 1-514, S451D/S453D/S456D/S462D)
Method: protein-binding microarray
Form: double-stranded DNA, one strand shown
Sample: in vitro
Concentration: 940 nM top
Setting: 60-bp whole probe
Together with: salmon DNA 0.4 mg/ml
Reference: random background probes
Reading: higher = stronger binding
Endpoint: fitted relative affinity
Shared flanks, not repeated: GCCTAGCAC … GTCTTGATTCGCTTGACGCTGCTG
GACGGACTGGGTCTGGGGACGTGCTAG: -0.734 z-score
TTAGGTTTCCTACTGCTTTTGTGCTAG: 0.604 z-score
TCACCCCTTGCTTTCCAACTGTGCTAG: 0.903 z-score
TTAAATATCGGGACTGGATTAGTGCTA: -0.27 z-score
TGCTTCCTCTTTTTTGTTCCGTGCTAG: 2 z-score
AAGACTTTGGTTTGTACACCGTGCTAG: -0.56 z-score
GACGGACTGCTTTTCCGGACGTGCTAG: -0.396 z-score
TTAGGAATGGGGTTTCGGTTAGTGCTA: 5.81 z-score
GACGGACTTGGTTTCGGGACGTGCTAG: 4.78 z-score
GACGGTATCGGGTTTCGGGGCGTGCTA: 5.56 z-score
GACGCTTTCAGTTCCGAGACGTGCTAG: 1.86 z-score
GGAAAAATGATGTTTTAGGTCGTGCTA: -0.581 z-score
GACTGTATCCTTCTCCTGACGTGCTAG: 0.582 z-score
GACGGTGTCGGTCTCGGGACGTGCTAG: 1.29 z-score
TCATTTATTTATTTTTAACTGTGCTAG: 0.897 z-score
GACGCTTTCGGGTATCGGGACGTGCTA: 3.57 z-score
TTAGAACTGGGGTATCGTTTAGTGCTA: 1.27 z-score
TACAGCAGGGAGGGAGGCACGTGCTAG: -0.321 z-score
GAGGGGGCAGGGACTCAGGGGTGCTAG: 1.64 z-score
GACCATCTCAGTATCGAGACGTGCTAG: 2.02 z-score
GACGGTATCGACTTGCGGGACGTGCTA: 4.46 z-score

Repeated from above (study 4):
GACGGTGTCGGTCTCGGGACGTGCTAG: 1.29 z-score
TCATTTATTTATTTTTAACTGTGCTAG: 0.897 z-score
GACGCTTTCGGGTATCGGGACGTGCTA: 3.57 z-score
TTAGAACTGGGGTATCGTTTAGTGCTA: 1.27 z-score
TACAGCAGGGAGGGAGGCACGTGCTAG: -0.321 z-score
GAGGGGGCAGGGACTCAGGGGTGCTAG: 1.64 z-score
GACCATCTCAGTATCGAGACGTGCTAG: 2.02 z-score
GACGGTATCGACTTGCGGGACGTGCTA: 4.46 z-score
